{"data": "Measured values from different studies", "organism": "Escherichia coli", "note": "Each line is one published result; not all experiments were run side by side. Numbers after ± are the reported error."}
{"SMILES": "CC[C@H](C)[C@H](NC(=O)[C@H](CCCCN)NC(=O)[C@H](CCCCN)NC(=O)[C@H](CC(C)C)NC(=O)[C@H](CCCCN)NC(=O)[C@H](CCC(=O)O)NC(=O)[C@H](CCCCN)NC(=O)[C@@H](NC(=O)[C@H](CCCCN)NC(=O)[C@H](CC(N)=O)NC(=O)[C@H](CCCNC(=N)N)NC(=O)[C@H](Cc1ccccc1)NC(=O)[C@H](CCCCN)NC(=O)[C@H](CCCNC(=N)N)NC(=O)[C@H](CC(C)C)NC(=O)[C@H](CCCNC(=N)N)NC(=O)[C@H](CCCCN)NC(=O)[C@H](CCCNC(=N)N)NC(=O)[C@H](CC(C)C)NC(=O)CN)[C@@H](C)CC)C(=O)NCC(=O)N[C@@H](CCC(N)=O)C(=O)N[C@@H](CCCCN)C(=O)N[C@H](C(=O)N[C@@H](CCC(N)=O)C(=O)NCC(=O)N[C@@H](Cc1ccccc1)C(=O)N[C@H](C(=O)N1CCC[C@H]1C(=O)N[C@@H](CCCCN)C(=O)N[C@@H](CC(C)C)C(=O)N[C@@H](C)C(=O)N1CCC[C@H]1C(=O)N[C@@H](CCCNC(=N)N)C(=O)N[C@H](C(=O)N[C@@H](CC(=O)O)C(=O)N[C@@H](Cc1ccc(O)cc1)C(=O)O)[C@@H](C)O)C(C)C)[C@@H](C)CC", "assay": "inhibition zone", "system": "TOP10", "endpoint": "lethal concentration", "value": "1.62 µM"}
{"SMILES": "CC(C)=CCC/C(C)=C/CNCCNC1C2CC3CC1CC(O)(C3)C2 (stereo not shown)", "system": "K12", "endpoint": "IC50", "value": "128 ± 3.4 µM"}
{"SMILES": "C[C@]1(COC(=O)c2ccccc2O)[C@H](C(=O)O)N2C(=O)/C(=C/c3ccccn3)[C@H]2S1(=O)=O", "assay": "broth microdilution", "system": "MG1655 expressing CTX-M-14", "conditions": "16 µg/mL, 20 h, 37 °C", "endpoint": "MIC of ampicillin", "value": "256 µg/mL"}
{"SMILES": "CC[C@H](C)[C@H](NC(=O)[C@H](CCN)NC(=O)[C@H](Cc1ccccc1)NC(=O)[C@H](Cc1ccccc1)NC(=O)CCCCCOC(=O)c1cn(C2CC2)c2cc(N3CCNCC3)c(F)cc2c1=O)C(=O)N[C@@H](CCN)C(=O)N[C@H](Cc1ccccc1)C(=O)N[C@@H](CC(C)C)C(=O)N[C@@H](CCN)C(=O)N[C@@H](C(=O)N[C@@H](CC(C)C)C(=O)N[C@@H](CO)C(N)=O)C(C)C", "conditions": "6.25 µM, 12 h, 37 °C", "endpoint": "survival", "value": "20.6%"}
{"SMILES": "CCCCCCCCCCCCCCC(=O)N[C@@H](CCCCN)C(=O)N[C@@H](CCCCN)C(=O)N[C@@H](CCCCN)C(=O)N[C@@H](CCCCN)C(=O)N[C@@H](CCCCN)C(N)=O", "system": "K12", "endpoint": "MBC", "value": "128 µg/mL"}
{"SMILES": "CC[C@H](C)[C@H](NC(=O)[C@H](CCCNC(=N)N)NC(=O)[C@H](CCCCN)NC(=O)[C@H](CC(C)C)NC(=O)[C@H](CC(C)C)NC(=O)CN)C(=O)N[C@@H](CCCCN)C(=O)N[C@H](C(=O)N[C@@H](CC(C)C)C(=O)N[C@@H](CC(C)C)C(=O)NCCCC[C@H](NC(=O)[C@H](CC(C)C)NC(=O)[C@H](CC(C)C)NC(=O)[C@@H](NC(=O)[C@H](CCCCN)NC(=O)[C@@H](NC(=O)[C@H](CCCNC(=N)N)NC(=O)[C@H](CCCCN)NC(=O)[C@H](CC(C)C)NC(=O)[C@H](CC(C)C)NC(=O)CN)[C@@H](C)CC)[C@@H](C)O)C(=O)NCCCC[C@H](NC(=O)[C@H](CCCCNC(=O)[C@H](CC(C)C)NC(=O)[C@H](CC(C)C)NC(=O)[C@@H](NC(=O)[C@H](CCCCN)NC(=O)[C@@H](NC(=O)[C@H](CCCNC(=N)N)NC(=O)[C@H](CCCCN)NC(=O)[C@H](CC(C)C)NC(=O)[C@H](CC(C)C)NC(=O)CN)[C@@H](C)CC)[C@@H](C)O)NC(=O)[C@H](CC(C)C)NC(=O)[C@H](CC(C)C)NC(=O)[C@@H](NC(=O)[C@H](CCCCN)NC(=O)[C@@H](NC(=O)[C@H](CCCNC(=N)N)NC(=O)[C@H](CCCCN)NC(=O)[C@H](CC(C)C)NC(=O)[C@H](CC(C)C)NC(=O)CN)[C@@H](C)CC)[C@@H](C)O)C(N)=O)[C@@H](C)O", "assay": "checkerboard", "system": "ATCC 25922", "conditions": "added: polymyxin B", "endpoint": "FIC index", "value": 0.125}
{"SMILES": "CC(C)C1=CC2=CCC3C(C)(C(=O)OCCC[N+](C)(C)C)CCCC3(C)C2CC1 (stereo not shown)", "system": "ATCC 25922", "scale": "reference: HC50 over MIC", "endpoint": "selectivity index", "value": 10}
{"SMILES": "CCCCCCCCCCCCCC(=O)N[C@H](CCN)C(=O)N[C@@H]1C(=O)N[C@@H](CCN)C(=O)N[C@@H](CC(C)C)C(=O)N[C@@H](CCN)C(=O)N[C@H](Cc2ccccc2)C(=O)N[C@@H](CC(C)C)C(=O)N[C@@H](CCN)C(=O)N[C@H](CCN)C(=O)N[C@@H](C(C)C)C(=O)N[C@@H](CC(=O)O)C(=O)O[C@@H]1C", "system": "MG1655-mcr-1, colistin-resistant, neutropenic mice, thigh infection", "conditions": "subcutaneous, 20 mg/kg once daily", "scale": "reference: vehicle", "endpoint": "reduction in bacterial burden", "value": "3.42 log10 CFU"}
{"SMILES": "CCCC(=O)NCC(=O)N[C@@H](CC(C)C)C(=O)N[C@@H](CC(C)C)C(=O)N[C@@H](CCCCN)C(=O)N[C@@H](CCCNC(=N)N)C(=O)N[C@H](C(=O)N[C@@H](CCCCN)C(=O)N[C@H](C(=O)N[C@@H](CC(C)C)C(=O)N[C@@H](CC(C)C)C(=O)NCCCC[C@H](NC(=O)[C@H](CC(C)C)NC(=O)[C@H](CC(C)C)NC(=O)[C@@H](NC(=O)[C@H](CCCCN)NC(=O)[C@@H](NC(=O)[C@H](CCCNC(=N)N)NC(=O)[C@H](CCCCN)NC(=O)[C@H](CC(C)C)NC(=O)[C@H](CC(C)C)NC(=O)CNC(=O)CCC)[C@@H](C)CC)[C@@H](C)O)C(=O)NCCCC[C@H](NC(=O)[C@H](CCCCNC(=O)[C@H](CC(C)C)NC(=O)[C@H](CC(C)C)NC(=O)[C@@H](NC(=O)[C@H](CCCCN)NC(=O)[C@@H](NC(=O)[C@H](CCCNC(=N)N)NC(=O)[C@H](CCCCN)NC(=O)[C@H](CC(C)C)NC(=O)[C@H](CC(C)C)NC(=O)CNC(=O)CCC)[C@@H](C)CC)[C@@H](C)O)NC(=O)[C@H](CC(C)C)NC(=O)[C@H](CC(C)C)NC(=O)[C@@H](NC(=O)[C@H](CCCCN)NC(=O)[C@@H](NC(=O)[C@H](CCCNC(=N)N)NC(=O)[C@H](CCCCN)NC(=O)[C@H](CC(C)C)NC(=O)[C@H](CC(C)C)NC(=O)CNC(=O)CCC)[C@@H](C)CC)[C@@H](C)O)C(N)=O)[C@@H](C)O)[C@@H](C)CC", "assay": "checkerboard", "system": "ATCC 25922", "conditions": "added: gentamicin", "endpoint": "FIC index", "value": 0.25}
{"SMILES": "CC[C@H](C)[C@H](NC(=O)[C@H](CCCCN)NC(=O)[C@H](CCCCN)NC(=O)[C@H](CC(C)C)NC(=O)[C@H](CCCCN)NC(=O)[C@H](CCC(=O)O)NC(=O)[C@H](CCCCN)NC(=O)[C@@H](NC(=O)[C@H](CCCCN)NC(=O)[C@H](CC(N)=O)NC(=O)[C@H](CCCNC(=N)N)NC(=O)[C@H](Cc1ccccc1)NC(=O)[C@H](CCCCN)NC(=O)[C@H](CCCNC(=N)N)NC(=O)[C@H](CC(C)C)NC(=O)[C@H](CCCNC(=N)N)NC(=O)[C@H](CCCCN)NC(=O)[C@H](CCCNC(=N)N)NC(=O)[C@H](CC(C)C)NC(=O)[C@@H](N)CCCNC(=N)N)[C@@H](C)CC)C(=O)NCC(=O)N[C@@H](CCC(N)=O)C(=O)N[C@@H](CCCCN)C(=O)N[C@H](C(=O)N[C@@H](CCC(N)=O)C(=O)NCC(=O)N[C@@H](Cc1ccccc1)C(=O)N[C@H](C(=O)N1CCC[C@H]1C(=O)N[C@@H](CCCCN)C(=O)N[C@@H](CC(C)C)C(=O)N[C@@H](CCC(N)=O)C(=O)N1CCC[C@H]1C(=O)N[C@@H](CO)C(=O)N[C@@H](CCCCN)C(=O)N[C@@H](CCC(N)=O)C(=O)N[C@@H](CO)C(=O)O)C(C)C)[C@@H](C)CC", "assay": "inhibition zone", "system": "Am. J23a", "endpoint": "lethal concentration", "value": "2.89 µM"}
{"SMILES": "O=C(O)[C@@H]1Cc2c([nH]c3ccccc23)[C@@H](c2ccc(Br)cc2Br)N1", "system": "BL21(DE3)", "conditions": "125 µM, 18 h", "endpoint": "growth inhibition", "value": "0%"}
{"SMILES": "ONCc1cc(C(F)(F)F)cc(C(F)(F)F)c1", "system": "preformed static biofilm", "conditions": "2 x MIC, 72 h", "endpoint": "biofilm removal", "value": "> 50%"}
{"SMILES": "C[C@@](O)(C(F)F)[C@H](NC(=O)c1ccc(C#CC#CC2CC2)cc1)C(=O)NO", "system": "W3110", "endpoint": "MIC after serial passage", "value": "1 to 2 µg/mL"}
{"SMILES": "CCCC(=O)NCC(=O)N[C@@H](CC(C)C)C(=O)N[C@@H](CC(C)C)C(=O)N[C@@H](CCCCN)C(=O)N[C@@H](CCCNC(=N)N)C(=O)N[C@H](C(=O)N[C@@H](CCCCN)C(=O)N[C@H](C(=O)N[C@@H](CC(C)C)C(=O)N[C@@H](CC(C)C)C(=O)NCCCC[C@H](NC(=O)[C@H](CC(C)C)NC(=O)[C@H](CC(C)C)NC(=O)[C@@H](NC(=O)[C@H](CCCCN)NC(=O)[C@@H](NC(=O)[C@H](CCCNC(=N)N)NC(=O)[C@H](CCCCN)NC(=O)[C@H](CC(C)C)NC(=O)[C@H](CC(C)C)NC(=O)CNC(=O)CCC)[C@@H](C)CC)[C@@H](C)O)C(N)=O)[C@@H](C)O)[C@@H](C)CC", "assay": "checkerboard", "system": "ATCC 25922", "conditions": "added: polymyxin B", "endpoint": "FIC index", "value": 0.25}
{"SMILES": "CC[C@H](C)[C@@H]1NC(=O)[C@H](CCCCN)NC(=O)[C@@H](NC(=O)[C@H](C)NC(=O)[C@@H](NC(=O)[C@H](CC(C)C)NC(=O)[C@H](CC(N)=O)NC(=O)[C@@H](NC(=O)CNC(=O)[C@H](CC(C)C)NC(=O)[C@H](CCCNC(=N)N)NC(=O)[C@H](C)NC(=O)[C@H](CC(C)C)NC(=O)[C@H](CC(=O)O)NC(=O)[C@H](CCCCN)NC(=O)CNC(=O)[C@H](CC(C)C)NC(=O)CNC(=O)[C@H](CCCCN)NC(=O)[C@H](CO)NC(=O)[C@H](C)NC(=O)[C@H](Cc2ccccc2)NC(=O)[C@H](CCCCN)NC(=O)[C@H](C)NC(=O)[C@@H](NC(=O)CNC(=O)[C@H](CCCNC(=N)N)NC(=O)[C@H](Cc2ccccc2)NC(=O)[C@@H](NC(=O)[C@H](CO)NC(=O)[C@H](CO)NC(=O)[C@H](Cc2ccccc2)NC(=O)CN)[C@@H](C)CC)C(C)C)C(C)C)C(C)C)CSSC[C@@H](C(=O)O)NC(=O)[C@H](CCC(N)=O)NC(=O)[C@H](CCCCN)NC(=O)[C@H](CO)NC1=O", "system": "ATCC 8739", "conditions": "MIC", "endpoint": "time to complete killing", "value": "30 min"}
{"SMILES": "CC[C@H](C)[C@H](NC(=O)[C@H](CCCCN)NC(=O)[C@H](CCCCN)NC(=O)[C@H](CC(C)C)NC(=O)[C@H](CCCCN)NC(=O)[C@H](CCC(=O)O)NC(=O)[C@H](CCCCN)NC(=O)[C@@H](NC(=O)[C@H](CCCCN)NC(=O)[C@H](CC(N)=O)NC(=O)[C@H](CCCNC(=N)N)NC(=O)[C@H](Cc1ccccc1)NC(=O)[C@H](CCCCN)NC(=O)[C@H](CCCNC(=N)N)NC(=O)[C@H](CC(C)C)NC(=O)[C@H](CCCNC(=N)N)NC(=O)[C@H](CCCCN)NC(=O)[C@H](CCCNC(=N)N)NC(=O)[C@H](CC(C)C)NC(=O)[C@@H](N)CC(C)C)[C@@H](C)CC)C(=O)NCC(=O)N[C@@H](CCC(N)=O)C(=O)N[C@@H](CCCCN)C(=O)N[C@H](C(=O)N[C@@H](CCC(N)=O)C(=O)NCC(=O)N[C@@H](Cc1ccccc1)C(=O)N[C@H](C(=O)N1CCC[C@H]1C(=O)N[C@@H](CCCCN)C(=O)N[C@@H](CC(C)C)C(=O)N[C@H](C(=O)N1CCC[C@H]1C(=O)N[C@@H](CCCNC(=N)N)C(=O)N[C@H](C(=O)N[C@@H](CCC(=O)O)C(=O)N[C@@H](CO)C(=O)O)[C@@H](C)O)C(C)C)C(C)C)[C@@H](C)CC", "assay": "inhibition zone", "system": "JM109", "endpoint": "lethal concentration", "value": "2.11 µM"}
